Published values gathered from unrelated publications.
± gives the spread as reported. Values after ≈ are worked out from the molar mass of the structure shown.

SMILES | organism | test | test system | conditions | how to read | measurement | value
Cc1c2c(cc3oc(=O)cc(-c4ccc(O)cc4)c13)C(=O)c1cccc(O)c1C2=O | Klebsiella aerogenes | microbial growth, disc diffusion | – | 100 µg/disc | – | inhibition zone | 15 mm
CC(C)(C)NCC(SS(=O)(=O)O)c1ccccc1 (stereo not drawn) | Schistosoma mansoni | – | mice | oral, 400 mg/kg single dose, 42 days post-infection | relative to: vehicle | female worm burden reduction | 100%
Cc1cc2[nH]c(C(=O)Nc3cc(F)ccc3F)c(CN3CCCCC3)c2s1 | Giardia duodenalis | parasite growth | – | 48 h | – | IC50 | > 10 µM
O=C(CCC(=O)c1ccccc1)NCCN(CC(=O)Nc1ccc(I)cc1)C(=O)CCc1cn(C[c-]2cccc2)nn1.[Fe+2].c1cc[cH-]c1 | Bacillus subtilis, Staphylococcus aureus | MIC | including MRSA | up to 512 µg/mL | – | antibacterial activity | inactive
CC/C(=C\c1ccc(OCC(=O)NC(C(=O)N2CCOCC2)c2ccccc2)cc1)[N+](=O)[O-] (stereo not drawn) | Leishmania donovani | – | macrophages, intracellular amastigotes | 12.5 µM, 72 h | – | inhibition | 63.2%
CN(C)c1cc(CNCC(N)=O)c(O)c2c1C[C@H]1C[C@H]3[C@H](N(C)C)C(O)=C(C(N)=O)C(=O)[C@@]3(O)C(O)=C1C2=O | Enterococcus faecalis | – | JH2-2(pMV158), Tet L efflux | – | – | MIC | 8 µg/mL (≈ 14.7 µM)
O=C(CN(CCNC(=O)OCC1c2ccccc2-c2ccccc21)C(=O)CCc1cn(C[c-]2cccc2)nn1)Nc1ccc(I)cc1.[Fe+2].c1cc[cH-]c1 | Bacillus subtilis, Staphylococcus aureus | MIC | including MRSA | up to 512 µg/mL | – | antibacterial activity | inactive
N#CCC(=O)NNC(=S)Nc1ccc(Cl)c(Cl)c1 | Nakaseomyces glabratus | refers to: CDR1, CDR2, YOR1 | – | concentration not given, without ketoconazole | – | mRNA level | no effect
Nc1ccn(C[C@@H](CO)OCP(=O)(O)OCCCS(=O)(=O)CCCCCCCCCCC2CCC2)c(=O)n1 | human alphaherpesvirus 3 | – | HFF, Ellen | – | relative to: CC50 over EC50 | selectivity index | 25
CN(C)c1cc(CNCc2ccco2)c(O)c2c1C[C@H]1C[C@H]3[C@H](N(C)C)C(O)=C(C(N)=O)C(=O)[C@@]3(O)C(O)=C1C2=O | Enterococcus faecalis | microbial growth, broth dilution | – | – | – | MIC | 1 µg/mL (≈ 1.76 µM)
O=S(=O)(O)CCCCCCCCCCCSC[C@H]1O[C@@H]2O[C@H]3[C@H](O)[C@@H](O)[C@@H](O[C@H]4[C@H](O)[C@@H](O)[C@@H](O[C@H]5[C@H](O)[C@@H](O)[C@@H](O[C@H]6[C@H](O)[C@@H](O)[C@@H](O[C@H]7[C@H](O)[C@@H](O)[C@@H](O[C@H]8[C@H](O)[C@@H](O)[C@@H](O[C@H]1[C@H](O)[C@H]2O)O[C@@H]8CSCCCCCCCCCCCS(=O)(=O)O)O[C@@H]7CSCCCCCCCCCCCS(=O)(=O)O)O[C@@H]6CSCCCCCCCCCCCS(=O)(=O)O)O[C@@H]5CSCCCCCCCCCCCS(=O)(=O)O)O[C@@H]4CSCCCCCCCCCCCS(=O)(=O)O)O[C@@H]3CSCCCCCCCCCCCS(=O)(=O)O | human alphaherpesvirus 2 | – | 333, mouse, intravaginal HSV-2 infection | intravaginal, 0.03 mg per mouse, HEC gel, days 4 to 10 post-infection | direction not given | AUC of mean lesion score | 39.7 ± 25.1
COc1c2c(cc3oc(=O)cc(-c4ccc(O)cc4)c13)C(=O)c1cc(C)cc(O)c1C2=O | Klebsiella aerogenes | – | – | 100 µg/disc | – | inhibition zone diameter | < 8 mm
Cc1ccc(NC(=O)c2[nH]c3cc(C)sc3c2CN(C)C)cc1 | Giardia duodenalis | parasite growth | – | 48 h | – | IC50 | > 10 µM
CC1(CCCCCCCCCCOCCCOP(=O)(O)CO[C@H](CO)Cn2ccc(N)nc2=O)COC1 | human alphaherpesvirus 2 | – | HFF, G | – | relative to: CC50 over EC50 | selectivity index | > 98
CCOC(=O)C(NC(=O)CN1C(=O)/C(=C/c2ccc3c(c2)OCO3)SC1=S)C(C)C (stereo not drawn) | Leishmania major | parasite growth, resazurin | – | promastigote | – | IC50 | > 100 µM
COc1cc(OC)c2c(c1)C(=O)c1cc3oc(=O)cc(-c4ccc(Cl)cc4)c3c(O)c1C2=O | Klebsiella aerogenes | microbial growth, disc diffusion | – | 100 µg/disc | – | inhibition zone | 15 mm
NCC(=O)N[C@H](Cc1ccccc1)C(=O)N[C@@H](Cc1ccccc1)C(N)=O | Aplysia | feeding network activity, electrophysiology | buccal and cerebral ganglia | concentration not given | – | activity | inactive
CCOC(=O)C(CC)NC(=O)CN1C(=O)S/C(=C\c2ccc(C)cc2)C1=O (stereo not drawn) | Leishmania major | parasite growth, resazurin | – | promastigote | – | IC50 | > 100 µM
CC1CCN(Cc2cc(N(C)C)c3c(c2O)C(=O)C2=C(O)[C@]4(O)C(=O)C(C(N)=O)=C(O)[C@@H](N(C)C)[C@@H]4C[C@@H]2C3)CC1 | Enterococcus faecalis | – | JH2-2(pMV158), Tet L efflux | – | – | MIC | 0.25 µg/mL (≈ 0.44 µM)
CC[C@H](C)[C@@H]1NC(=O)[C@H](Cc2ccc(OC)cc2)NC(=O)[C@@H](N)CSSC[C@@H](C(=O)N2CCC[C@H]2C(=O)N[C@@H](CC(C)C)C(=O)NCC(N)=O)NC(=O)[C@H](CC(N)=O)NC(=O)[C@H](CCC(N)=O)NC1=O | Bufo marinus | agonist | urinary bladder | – | relative to: deamino-oxytocin | relative maximal response | 0.88
CCOC(=O)C(NC(=O)CN1C(=O)/C(=C/c2ccc([N+](=O)[O-])cc2)SC1=S)C(C)C (stereo not drawn) | Leishmania major | parasite growth | – | 72 h, intracellular, amastigote | – | IC50 | > 10 µM
Cc1cc2[nH]c(C(=O)N(C)Cc3ccco3)c(CN3CCCCC3)c2s1 | Giardia duodenalis | parasite growth | – | 48 h | – | IC50 | > 10 µM
CN[C@H](CC(C)C)C(=O)N[C@H]1C(=O)N[C@@H](CC(N)=O)C(=O)N[C@H]2C(=O)N[C@H]3C(=O)N[C@H](C(=O)N[C@H](C(=O)O)c4cc(O)cc(O)c4-c4cc3ccc4O)[C@H](O)c3ccc(c(Cl)c3)Oc3cc2cc(c3O[C@@H]2O[C@H](CO)[C@@H](O)[C@H](O)[C@H]2O[C@H]2C[C@](C)(NCc3ccc(C(=O)OCCCCCCN(Cc4ccccn4)Cc4ccccn4)cc3)[C@H](O)[C@H](C)O2)Oc2ccc(cc2Cl)[C@H]1O | Bacillus subtilis | protein synthesis, refers to: Hom | 168 | concentration not given, 10 min, at peak effective concentration | relative to: untreated | regulation factor | 3.3 ± 1

SMILES | organism | test | test system | conditions | how to read | measurement | value
CC(=O)[O-].O.O.O.O.[Ni+2].[O-]c1ccc(Br)cc1C=NCCN1CCOCC1 | Mucor indicus | – | – | 20 µL of 100 µM per disc | – | inhibition zone diameter | 26 mm
CN(C)c1cc(CNC2CCCCC2)c(O)c2c1C[C@H]1C[C@H]3[C@H](N(C)C)C(O)=C(C(N)=O)C(=O)[C@@]3(O)C(O)=C1C2=O | Enterococcus faecalis | – | JH2-2(pMV158), Tet L efflux | – | – | MIC | 1 µg/mL (≈ 1.76 µM)
COc1ccc2c(c1CC=C(C)C)O[C@H]1c3cc4c(cc3OC[C@@]21O)OC(C)(C)C=C4 | Enterococcus faecalis | – | ATCC 29212 | concentration not given | – | antibacterial activity | inactive
CCOC(=O)CNC(=O)CN1C(=O)S/C(=C\c2ccc(OC)c(O)c2)C1=O | Leishmania major | parasite growth | – | 24 h, intracellular, amastigote | – | IC50 | 9.99 µM
c1ccc(-c2nc(-c3ccc4ccccc4c3)c[nH]2)cc1 | Schistosoma mansoni | – | adult male worms | 5 µM | – | worm killing | 0%
C[C@@H](O)[C@H](NC(=O)c1ccc(C#Cc2ccc(CN3CCOCC3)cc2)cc1)C(=O)NO | Stenotrophomonas maltophilia | microbial growth, broth dilution | – | clinical isolate | – | MIC90 | > 64 µg/mL
CCCCCCCCCc1nc2cc(Cl)ccc2c(=O)n1CCCN | Pseudomonas aeruginosa, Staphylococcus aureus | – | mixed biofilm | 100 µM, with: tobramycin 100 µg/mL | – | reduction in biofilm biomass | > 95%
CNC1=C([N+](=O)[O-])C2(C(=O)Nc3ccc([N+](=O)[O-])cc32)C2=C(CCCC2=O)O1 (stereo not drawn) | Enterococcus faecalis | – | MTCC 439 | 250 µg/mL, 24 h | – | growth inhibition | 33.1%
CN(C)c1cc(CN2CCOCC2)c(O)c2c1C[C@H]1C[C@H]3[C@H](N(C)C)C(O)=C(C(N)=O)C(=O)[C@@]3(O)C(O)=C1C2=O | Enterococcus faecalis | microbial growth, broth dilution | – | – | – | MIC | 2 µg/mL (≈ 3.59 µM)
Cc1cc(=O)oc2cc3c(c(C)c12)C(=O)c1c(O)cccc1C3=O | Klebsiella aerogenes | microbial growth, disc diffusion | – | 100 µg/disc | – | inhibition zone | 10 mm
CN(C)c1cc(CNC(C)(C)C)c(O)c2c1C[C@H]1C[C@H]3[C@H](N(C)C)C(O)=C(C(N)=O)C(=O)[C@@]3(O)C(O)=C1C2=O | Enterococcus faecalis | – | JH2-2(pMV158), Tet L efflux | – | – | MIC | 8 µg/mL (≈ 14.7 µM)
CC1(CCCCCCCCCCCCCCOCCCOP(=O)(O)CO[C@H](CO)Cn2ccc(N)nc2=O)COC1 | human alphaherpesvirus 3 | – | HFF, Ellen | – | relative to: CC50 over EC50 | selectivity index | 1070
CCC(NC(=O)CN1C(=O)N/C(=C\c2ccc(C)cc2)C1=O)C(=O)OC (stereo not drawn) | Leishmania major | parasite growth, resazurin | – | promastigote | – | IC50 | > 100 µM
CSc1ccccc1NC(=O)c1[nH]c2cc(C)sc2c1CN1CCOCC1 | Giardia duodenalis | parasite growth | – | – | – | IC50 | ≤ 10 µM
CCOC(=O)C(C)NC(=O)CN1C(=O)N/C(=C\c2ccc(C)cc2)C1=O (stereo not drawn) | Leishmania major | parasite growth | – | 72 h, intracellular, amastigote | – | IC50 | > 10 µM
Cc1cc2[nH]c(C(=O)NCCCN3CCCC3=O)c(CN3CCOCC3)c2s1 | Giardia duodenalis | parasite growth | – | 48 h | – | IC50 | > 10 µM
CCOC(=O)C(CC)NC(=O)CN1C(=O)S/C(=C\c2ccc([N+](=O)[O-])cc2)C1=O (stereo not drawn) | Leishmania major | parasite growth | – | 24 h, intracellular, amastigote | – | IC50 | > 10 µM
CC(=O)Nc1ccc(NC(=O)c2[nH]c3cc(C)sc3c2CN2CCOCC2)cc1 | Giardia duodenalis | parasite growth | – | 48 h | – | IC50 | > 10 µM
CC(C)=CCc1cc([C@@H]2CC(=O)c3ccc(O)c(CC=C(C)C)c3O2)c(O)c(CC=C(C)C)c1O | Enterococcus faecalis | – | ATCC 29212 | concentration not given | – | antibacterial activity | inactive
Oc1c(Br)cc(Br)c2nc3c(C(F)(F)F)cc(C(F)(F)F)cc3nc12 | Staphylococcus aureus | Calgary Biofilm Device | MRSA 1707 | biofilm | – | MBEC | 1.56 µM
CC/C(=C\c1ccc(OCC(=O)NC(C(=O)N2CCSCC2)c2ccccc2)cc1)[N+](=O)[O-] (stereo not drawn) | Leishmania donovani | parasite growth, MTT | – | 100 µM, 48 h, promastigote | – | inhibition | 77.9%
CCOC(=O)C(C)NC(=O)CN1C(=O)S/C(=C\c2ccc(F)cc2)C1=O (stereo not drawn) | Leishmania major | parasite growth | – | 24 h, intracellular, amastigote | – | IC50 | > 10 µM

Some of these lines once more:
SMILES | organism | test | test system | conditions | how to read | measurement | value
CCOC(=O)C(C)NC(=O)CN1C(=O)N/C(=C\c2ccc(C)cc2)C1=O (stereo not drawn) | Leishmania major | parasite growth | – | 72 h, intracellular, amastigote | – | IC50 | > 10 µM
N#CCC(=O)NNC(=S)Nc1ccc(Cl)c(Cl)c1 | Nakaseomyces glabratus | refers to: CDR1, CDR2, YOR1 | – | concentration not given, without ketoconazole | – | mRNA level | no effect
CCOC(=O)C(CC)NC(=O)CN1C(=O)S/C(=C\c2ccc([N+](=O)[O-])cc2)C1=O (stereo not drawn) | Leishmania major | parasite growth | – | 24 h, intracellular, amastigote | – | IC50 | > 10 µM
